Measured values pooled from the literature.
Parts stem from different laboratories: compare values within a part only. Changes are numbered by the printed parent chain.

Block 1 — target: CCNF, cyclin fold, Cln2 fusion (human); method: yeast growth competition, sequencing; matrix: yeast; notes: strong parent motif; relative to: not given; direction: higher = stronger binding
Parent: SCAPER docking peptide (human); SNARRSLNFGGST
Under “normalised enrichment score”, `N8T` is recorded as 4.7.
For `G11Y`, “normalised enrichment score” read 7.11.
Under “normalised enrichment score”, `R5G` is recorded as -0.481.
Under “normalised enrichment score”, `S1F` is recorded as 8.55.
`L7Q`: “normalised enrichment score” 1.54.
Under “normalised enrichment score”, `S6Y` is recorded as 7.68.
Under “normalised enrichment score”, `S12F` is recorded as 7.34.
`A3G` — result for “normalised enrichment score”: 3.5.
For `N2H`, “normalised enrichment score” read 7.11.
Under “normalised enrichment score”, `S12A` is recorded as 8.29.
For `F9A`, “normalised enrichment score” read 0.52.
`G10C`: “normalised enrichment score” 6.1.
Under “normalised enrichment score”, `R4I` is recorded as 5.67.

Block 2 — method: protein-binding microarray; form: double-stranded DNA, one strand shown; matrix: in vitro; tested at: 940 nM top; notes: 60-bp whole probe; with: salmon DNA 0.4 mg/ml; relative to: random background probes; direction: higher = stronger binding; shared flanks, not repeated: GCCTAGCAC … GTCTTGATTCGCTTGACGCTGCTG
Target: Interferon regulatory factor 5, full length, phosphomimetic (IRF5, Homo sapiens, UniProt Q13568-2, residues 1-514, S451D/S453D/S456D/S462D)
Under “fitted relative affinity”, `AGTGGGGAGGGAGAGAATCCGTGCTAG` is recorded as 0.939 z-score.
`ACCTCTCACGCATCTGAAACCGTGCTA` — result for “fitted relative affinity”: 1.02 z-score.
Under “fitted relative affinity”, `TTAGAGCTGGGGTTTCGATTAGTGCTA` is recorded as 4.9 z-score.
`CTCTTTCTTTGCTTCACCCTGTGCTAG`: “fitted relative affinity” 2.07 z-score.
Under “fitted relative affinity”, `TTAGGACTGGGTTTCGGTTTGTGCTAG` is recorded as 6.44 z-score.
`TTAGAACTGAGTTTCGATTGGTGCTAG`: “fitted relative affinity” 7.63 z-score.
For `TTAGGTATCGTACTGGGTTAGTGCTAG`, “fitted relative affinity” read 2.49 z-score.
For `AGTATGTTCCCTATTTAAGAGTGCTAG`, “fitted relative affinity” read 1.01 z-score.
Under “fitted relative affinity”, `TTAGGACTGGACATTCGGTTAGTGCTA` is recorded as -0.392 z-score.
Under “fitted relative affinity”, `TCATATGTATATATGTGACTGTGCTAG` is recorded as -0.398 z-score.
`TTAGGTAGCGGGTATCGGTTAGTGCTA`: “fitted relative affinity” 2.87 z-score.
`GACGGACTGATACTGCTGACGTGCTAG`: “fitted relative affinity” -0.08 z-score.
`GCTGGTCTCTAACTCAAGATGTGCTAG`: “fitted relative affinity” 0.211 z-score.
For `GCGATTTGAGGAGCTCGCTCGTGCTAG`, “fitted relative affinity” read -0.81 z-score.
`TTTGAACTGAGTTTCGATTAGTGCTAG`: “fitted relative affinity” 7.85 z-score.
For `CCACACACCATTCTCGGGACGTGCTAG`, “fitted relative affinity” read 1.3 z-score.
`GACGGACCGCTACTGCTGACGTGCTAG`: “fitted relative affinity” -0.647 z-score.
Under “fitted relative affinity”, `GACGGTCTCCTTTTCCTGCCGTGCTAG` is recorded as 0.657 z-score.
`TACGATATCAGACTGGAGACGTGCTAG`: “fitted relative affinity” -0.512 z-score.
`TCATTTTTTTTTCTACTACTGTGCTAG`: “fitted relative affinity” 1.84 z-score.
Under “fitted relative affinity”, `GACGGACTGGGGACTGGTGACGTGCTA` is recorded as -0.145 z-score.
`TTGGGTTCCGGTTTCGGTTAGTGCTAG`: “fitted relative affinity” 9.37 z-score.

Block 3 — method: universal PBM; form: double-stranded DNA, one strand shown; matrix: in vitro; tested at: not given; direction: higher = stronger binding
Target: Sal-like protein 4, full length isoform B (SALL4, Homo sapiens, UniProt Q9UJQ4-2, residues 1-616)
Notes: 8-mer, flanks averaged, mean of replicates
Construct (chain): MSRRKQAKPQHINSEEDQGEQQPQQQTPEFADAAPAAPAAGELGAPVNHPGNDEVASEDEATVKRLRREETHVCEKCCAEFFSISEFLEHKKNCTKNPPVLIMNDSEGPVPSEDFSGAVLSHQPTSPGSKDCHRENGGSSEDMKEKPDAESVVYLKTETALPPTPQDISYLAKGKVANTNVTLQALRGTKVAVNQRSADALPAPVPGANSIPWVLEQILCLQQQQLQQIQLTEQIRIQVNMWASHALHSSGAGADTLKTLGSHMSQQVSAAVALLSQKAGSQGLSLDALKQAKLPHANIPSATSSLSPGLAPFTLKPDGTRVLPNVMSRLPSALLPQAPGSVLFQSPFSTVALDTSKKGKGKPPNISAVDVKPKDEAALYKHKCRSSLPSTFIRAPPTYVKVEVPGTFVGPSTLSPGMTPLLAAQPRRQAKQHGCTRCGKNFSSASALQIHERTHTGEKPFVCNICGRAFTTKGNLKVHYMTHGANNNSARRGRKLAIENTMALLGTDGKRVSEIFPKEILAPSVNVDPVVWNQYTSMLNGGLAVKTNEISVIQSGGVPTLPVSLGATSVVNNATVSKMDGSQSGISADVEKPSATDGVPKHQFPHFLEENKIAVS
The E-score of `CGCTATAA` is reported as 0.187.
`ATGCCAGA` has an E-score of -0.0476.
The E-score of `TATGCGCA` is reported as 0.0239.
With `GTAGCGAA` the E-score was 0.0488.
`CGGTTAAG` has an E-score of 0.0678.
For `CTGTTCCC`, the E-score was -0.172.
`AGCGTATG` gave an E-score of -0.0344.
The E-score of `AGCCGTCG` is reported as -0.228.
With `TACATTCA` the E-score was 0.298.
`AGCTAACA` has an E-score of -0.0056.
The E-score of `GCTGAGCC` is reported as -0.241.
For `CGGCCGGA`, the E-score was -0.223.
`CTATTCCC` has an E-score of -0.0903.
For `GATATACC`, the E-score was 0.201.
With `AAGCTCGG` the E-score was -0.157.
The E-score of `GAGAGAGC` is reported as -0.157.
The E-score of `CTGCAGAA` is reported as 0.0614.
With `GTGGCGAA` the E-score was -0.113.
`ACCCGAGA` has an E-score of -0.258.
`GGATGTTA` has an E-score of 0.0211.
With `CCGTCTCC` the E-score was -0.276.
`CGATTTAC` gave an E-score of 0.00782.

Block 4 — target: UBE2M UBC core domain (UniProt P61081); method: yeast two-hybrid; matrix: yeast; notes: mostly zero background; relative to: not given; direction: higher = stronger interaction
B1: RNF150 RING domain (UniProt Q9ULK6); chain DKETESDFDNCAVCIEGYKPNDVVRILPCRHLFHKSCVDPWLLDHRTCPMCKMNILKALGIP
B2: ANKIB1 RING domain (UniProt Q9P2G1); chain LSPGDLDTSLCDICMCSISVFEDPVDMPCGHDFCRGCWESFLNLKIQEGEAHNIFCPAYDCFQLVPVDIIE
B3: TRIM15 RING domain (UniProt Q9C019); chain SLKVVHELPACTLCAGPLEDAVTIPCGHTFCRLCLPALSQMGAQSSGKILLCPLCQEEEQAETPMA
B4: UBE4A RING domain (UniProt Q14139); chain LQQQEEETYADACDEFLDPIMSTLMCDPVVLPSSRVTVDRSTIARHLLSDQTDPFNRSPLTMDQIRPNTELKEKIQRWLAERKQQKEQLE
B5: RNF32 RING domain (UniProt Q9H0A6); chain SLLQGDSVQPCPICKEEFELRPQVLLSCSHVFHKACLQAFEKFTNKKTCPLCRKNQYQTRVIH
B6: NSMCE1 RING domain (UniProt Q8WV22); chain RETYPDAVKICNICHSLLIQGQSCETCGIRMHLPCVAKYFQSNAEPRCPHCNDYWPHEIPKV
B7: RFPL2 RING domain (UniProt O75678); chain MAALFQEASSCPVCSDYLEKPMSLECGCAVCLKCINSLQKEPHGEDLLCCCSSMVSRKNKIRR
Construct (chain): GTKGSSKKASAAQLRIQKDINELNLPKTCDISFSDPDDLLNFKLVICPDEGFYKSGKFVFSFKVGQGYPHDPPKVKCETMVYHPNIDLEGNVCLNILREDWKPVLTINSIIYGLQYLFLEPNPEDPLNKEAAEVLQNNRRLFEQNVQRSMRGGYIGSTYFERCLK
For `B1 (RNF150 RING domain)`, “lacZ reporter activity” read 0.
Under “lacZ reporter activity”, `B2 (ANKIB1 RING domain)` is recorded as 0.
Under “lacZ reporter activity”, `B3 (TRIM15 RING domain)` is recorded as 0.
`B4 (UBE4A RING domain)`: “lacZ reporter activity” 0.
`B5 (RNF32 RING domain)` — result for “lacZ reporter activity”: 0.
`B6 (NSMCE1 RING domain)`: “lacZ reporter activity” 0.
`KIKDLNEHIVCCLCAGYFVDATTITECLHTFCKSCIVKYLQTSKYCPMCNIKIHETQPLL (PCGF1 RING domain (UniProt Q9BSM1))`: “lacZ reporter activity” 0.
`B7 (RFPL2 RING domain)` — result for “lacZ reporter activity”: 0.
Under “lacZ reporter activity”, `MANWVFCNRCFQPPHRTSCFSLTNCGHVYCDACLGKGKKNECLICKAPCRTVLLSK (RNF212 RING domain (UniProt Q495C1))` is recorded as 0.

Excerpt of the above (block 1):
For `G11Y`, “normalised enrichment score” read 7.11.
Under “normalised enrichment score”, `R5G` is recorded as -0.481.
Under “normalised enrichment score”, `S1F` is recorded as 8.55.
`L7Q`: “normalised enrichment score” 1.54.
Under “normalised enrichment score”, `S6Y` is recorded as 7.68.
Under “normalised enrichment score”, `S12F` is recorded as 7.34.
`A3G` — result for “normalised enrichment score”: 3.5.
For `N2H`, “normalised enrichment score” read 7.11.
Under “normalised enrichment score”, `S12A` is recorded as 8.29.
For `F9A`, “normalised enrichment score” read 0.52.
